Assay results pooled from the literature.
Protocols differ between the studies behind these lines. ± gives the spread as reported.

With O=C1Nc2ccc(Cl)cc2C1=Cc1c(Cl)[nH]c2c1ccc1ccccc12 the TGI was 5.62 µM (breast cancer subpanel of NCI-60; 48 h).
With CC(=O)OC[C@H]1O[C@@H](Sc2sc(C(=O)c3ccc(C)cc3)c(N)c2-c2nc3ccccc3s2)[C@H](OC(C)=O)[C@@H](OC(C)=O)[C@H]1OC(C)=O the growth was 82.9% (Hs-578T; SRB; 10 µM, 48 h; reference: untreated).
For CCCCCCCCN(CCC(=O)Nc1ccccc1)C(=O)c1ccccn1, the progerin mislocalisation was ~36% (HGPS fibroblasts; immunofluorescence; 2 µM, 408 h; reference: vehicle).
For CC/C=C\C/C=C\C/C=C\C/C=C\C/C=C\C/C=C\CCC(=O)Nc1ccn(C2OC(CO)C(O)C2(F)F)c(=O)n1 (stereo not shown), “total growth inhibition concentration” read 16.3 µM (BT-549).
Under “decrease in dual-activated cells”, O=C1NCC(Cc2ccccc2)N(CC2CCCN2CC(CC2CCCCC2)N2CC(Cc3ccc(O)cc3)N(CCc3ccccc3)C(=O)C2=O)C1=O (stereo not shown) is recorded as ~20% (WM 266-4; MAPK and PI3K activation, flow cytometry; concentration not given, 48 h; reference: untreated).
The inhibition of CC[C@@]12CC(O)c3[nH]c4ccccc4c3CCN(C[C@H]3O[C@H]31)C2 (stereo partly shown) is reported as 64.2 ± 5.4% (BV-2; NO production; 50 µM, 1 h, 24 h stimulation, together with: LPS 800 ng/mL; reference: LPS control).
CN1CCN(C(=O)N(CCCCCCC(=O)NO)c2ccc(-c3ccc4cnn(C)c4c3)cc2)CC1 gave a sub-G1 cells of 22.6 ± 1.43% (MM1.S; flow cytometry, propidium iodide; 300 nM, 24 h).
With COC(=O)c1ccccc1-c1c2ccc(=O)cc-2oc2cc(OCCCCCCCC[P+](c3ccccc3)(c3ccccc3)c3ccccc3)ccc12 the Pearson coefficient was 0.884 ± 0.006 (HeLa cells; confocal microscopy; together with: MitoTracker Deep Red).
COc1cc(CNC(=O)C[C@H](C)CCC=C(C)C)ccc1OCc1cn(-c2ccccc2Cl)nn1 gave a growth percent of 80.6% (U-251 CNS cancer cells; SRB; 10 µM, 48 h).
COc1cc(C(=O)c2[nH]c(N)nc2-c2cccs2)cc(OC)c1OC gave a mitotic index of 12 ± 2.3 (HeLa cells; Hoechst staining; 75 nM).
O=C(CN1CCC(NC(=O)CSc2ccc(Cl)cc2)CC1)Nc1ccccc1 — result for “lowest active concentration”: 10 µM (HEK293 NRF2 luciferase reporter; NRF2 reporter gene, activator; 18 h; reference: control).
O=Cc1c(O)ccc2ccccc12 — result for “log2 fold change”: -3.1 (HUVEC; RNA sequencing, refers to: CCNE2; 75 µM, 24 h; reference: DMSO).
The viability of O=C1CC(c2ccc(O)cc2)Oc2c1c(O)cc1oc3cc(O)c(O)cc3c21 (racemic) is reported as 89.5% (L02; MTT; 10 µM, 2 h, together with: H2O2 100 µM; reference: untreated).
CCNc1cc2c(cc1C)C1(c3cc(C)c(NCC)cc3O2)c2ccccc2C(=O)N1N=Cc1c[c-]c(-c2ccccn2)cc1.Cc1c(C)c(-c2ccc(-c3ccccc3)cc2)[c-](C)c1C.[Cl-].[Ir+3] has an apoptotic cells of 96.7% (A549; annexin V/PI; 3 x IC50, 24 h).
O=C1C(Cl)=C(NCCN2CCOCC2)C(=O)c2ncccc21: “effective single dose” 5 µM (HEK-293T; H4K20me1 depletion, inhibitor, western blot; sustained 3 days).
O=C(CCCCC1SCC2NC(=O)NC21)NCCCCC1CN(C(CC2CCCCC2)CN2CCCC2CN2C(=O)C(=O)NCC2Cc2ccccc2)C(=O)C(=O)N1CCc1ccccc1 (stereo not shown): “lamin A/C cleavage” “no effect” (WM 266-4; western blot, refers to: cleaved lamin A/C; 100 µM, 24 h).
For CCC(=C(c1ccc(Cl)cc1)c1ccc(OCCCN(C)C)cc1)c1ccc(OC)cc1, the GI50 was 8.01 µM (SK-MEL-2; cell growth or viability, SRB).
For CCN(CC)CC(=O)Nc1cccc(-n2cc(-c3ccc4ccc(-c5cn(-c6cccc(NC(=O)CN(CC)CC)c6)nn5)cc4c3)nn2)c1, colony formation read “decreased” (RCC4; 5 and 10 × IC50, 4 h, normoxia and hypoxia).
COc1cc(CNC(=O)C[C@H](C)CCC=C(C)C)ccc1OCc1cn(-c2ccccc2[N+](=O)[O-])nn1 has a growth percent of 39.9% (RPMI-8226 leukaemia cells; SRB; 10 µM, 48 h).
With COc1cc(/C=C/C(=O)O)ccc1O the TNF-α level was 539 pg/mL (BV-2; ELISA; 5 µM, together with: LPS 1.0 µg/mL).
For CC(=O)OC[C@H]1O[C@@H](Sc2sc(C(=O)c3ccc(Br)cc3)c(N)c2-c2nc3ccccc3s2)[C@H](OC(C)=O)[C@@H](OC(C)=O)[C@H]1OC(C)=O, the growth was 68.8% (IGROV-1; SRB; 10 µM, 48 h; reference: untreated).
COc1ccc(NC(=O)CCc2nc3cc(Cl)ccc3[nH]c2=O)cc1 — result for “active p53 level”: 346 ± 7.44 pg/mL (MCF7; concentration not given).
O=C(Nc1ccc(C(F)(F)F)cc1Cl)c1cc(Cl)ccc1O — result for PSA level: “decreased” (C4-2B MDVR cells; ELISA; 1 µM, 48 h, FBS conditions).
The inhibition of O=C1Nc2ccccc2/C1=N\Nc1nnc2n1N=C(c1ccc(Cl)cc1)CS2 is reported as 13% (SF-539; cell growth or viability, SRB; 10 µM).
CC(=C(c1ccc(O)cc1)c1ccc(Cl)cc1)c1ccc(Cl)cc1 has a GI50 of 0.6 µM (Hs-578T; cell growth or viability, SRB).
COc1ccc2c(c1)/C(=N\Nc1nnc3n1N=C(c1ccccc1)CS3)C(=O)N2 has an inhibition of 15% (SF-539; cell growth or viability, SRB; 10 µM).
The resistance factor of CC(C)Cc1ccc(C(C)C(=O)[O][Pt]([NH2])([NH2])([Cl])([Cl])[O]C(=O)CCCc2ccccc2)cc1 (stereo not shown) is reported as 1.9 (C13 and 2008; cytotoxicity, MTT; reference: IC50 C13 over IC50 2008).
For COc1cc(CNC(=O)C[C@H](C)CCC=C(C)C)ccc1OCc1cn(-c2ccccc2F)nn1, the growth percent was 44.6% (SF-539 CNS cancer cells; SRB; 10 µM, 48 h).
For CCc1nnc(NS(=O)(=O)c2ccc(NC(=S)NC(=O)/C=C/c3ccc(F)cc3)cc2)s1, neurosphere size read “no effect” (SK-N-AS EP2 knock-out; 10 µM).
COc1cc(CNC(=O)C[C@H](C)CCC=C(C)C)ccc1OCc1cn(-c2cccc(C(F)(F)F)c2)nn1 has a growth percent of 51% (U-251 CNS cancer cells; SRB; 10 µM, 48 h).
Cc1cc(N)c2ccccc2[n+]1CCCCCCCCCCCCCC[n+]1c(C)cc(N)c2ccccc21 — result for “time to decreased viability”: ≤ 24 h (NB12 neuroblastoma tumour-initiating cells; trypan blue exclusion; concentration not given).
With O=C1OCC2=C1C(c1cccc(Br)c1)C1=C(N2)C(=O)c2ccccc2C1=O (stereo not shown) the necrotic cells was 4.82% (SK-LU-1 cells; annexin V/PI; 0.32 µM, 24 h).
COc1cc(CNC(=O)C[C@H](C)CCC=C(C)C)ccc1OCc1cn(-c2ccc(Cl)cc2Cl)nn1 gave a growth percent of 66.9% (SF-539 CNS cancer cells; SRB; 10 µM, 48 h).
The invasion of COc1ccc([C@@H]2CC(=O)c3c(O)cc(O[C@@H]4O[C@H](CO[C@@H]5O[C@@H](C)[C@H](O)[C@@H](O)[C@H]5O)[C@@H](O)[C@H](O)[C@H]4O)cc3O2)cc1O is reported as 47.1 ± 5.6% (A549; Matrigel Transwell invasion; 100 µg/mL, 24 h).
N#Cc1cccc(-c2ccc(=O)n(Cc3cccc(-c4ncc(OCC5CCN(CC(=O)NCCOCCNc6ccc7c(c6)C(=O)N(C6CCC(=O)NC6=O)C7=O)CC5)cn4)c3)n2)c1 (stereo not shown) gave an apoptotic cells of 62.5% (EBC-1; annexin V flow cytometry; 100 nM, 48 h).
CC(=O)N[C@H](C(=O)N[C@H](C(=O)N[C@@H](CCCNC(=N)N)C(=O)N1Cc2ccccc2C[C@H]1C(=O)N[C@@H](Cc1ccccc1)C(N)=O)C1CCCCC1)C(C)C gave a cytokine level of 2000 ± 1080 pg/mL (MBP-specific BC-3 T cells; Bio-Plex multiplex, refers to: MCP-l(MCAF); 200 µg/mL, 24 h, together with: MBP87-99 antigen).
COc1cc(CNC(=O)C[C@H](C)CCC=C(C)C)ccc1OCc1cn(-c2ccc(F)cc2)nn1 gave a growth percent of 65.4% (U-251 CNS cancer cells; SRB; 10 µM, 48 h).
The viability of COc1ccc([C@@H]2CC(=O)c3c(O)cc(O[C@@H]4O[C@H](CO[C@@H]5O[C@@H](C)[C@H](O)[C@@H](O)[C@H]5O)[C@@H](O[C@H]5O[C@H](CO)[C@@H](O)[C@H](O)[C@H]5O)[C@H](O)[C@H]4O)cc3O2)cc1O is reported as 43% (A549; cell growth or viability, MTS; 100 µg/mL, 48 h).
The growth percent of COc1cc(CNC(=O)C[C@H](C)CCC=C(C)C)ccc1OCc1cn(-c2ccc([N+](=O)[O-])cc2)nn1 is reported as 82.8% (U-251 CNS cancer cells; SRB; 10 µM, 48 h).
CC(=O)Oc1ccccc1C(=O)[O][Pt]([NH2])([NH2])([Cl])([Cl])[O]C(=O)C(Cl)Cl: “mean IC50 ratio” ~18 (six human cancer cell lines; MTT; reference: cisplatin over compound).

Some of these lines once more:
COc1cc(CNC(=O)C[C@H](C)CCC=C(C)C)ccc1OCc1cn(-c2ccc(Cl)cc2Cl)nn1 gave a growth percent of 66.9% (SF-539 CNS cancer cells; SRB; 10 µM, 48 h).
The invasion of COc1ccc([C@@H]2CC(=O)c3c(O)cc(O[C@@H]4O[C@H](CO[C@@H]5O[C@@H](C)[C@H](O)[C@@H](O)[C@H]5O)[C@@H](O)[C@H](O)[C@H]4O)cc3O2)cc1O is reported as 47.1 ± 5.6% (A549; Matrigel Transwell invasion; 100 µg/mL, 24 h).
N#Cc1cccc(-c2ccc(=O)n(Cc3cccc(-c4ncc(OCC5CCN(CC(=O)NCCOCCNc6ccc7c(c6)C(=O)N(C6CCC(=O)NC6=O)C7=O)CC5)cn4)c3)n2)c1 (stereo not shown) gave an apoptotic cells of 62.5% (EBC-1; annexin V flow cytometry; 100 nM, 48 h).
CC(=O)N[C@H](C(=O)N[C@H](C(=O)N[C@@H](CCCNC(=N)N)C(=O)N1Cc2ccccc2C[C@H]1C(=O)N[C@@H](Cc1ccccc1)C(N)=O)C1CCCCC1)C(C)C gave a cytokine level of 2000 ± 1080 pg/mL (MBP-specific BC-3 T cells; Bio-Plex multiplex, refers to: MCP-l(MCAF); 200 µg/mL, 24 h, together with: MBP87-99 antigen).
COc1cc(CNC(=O)C[C@H](C)CCC=C(C)C)ccc1OCc1cn(-c2ccc(F)cc2)nn1 gave a growth percent of 65.4% (U-251 CNS cancer cells; SRB; 10 µM, 48 h).
